# Measurements from different studies.
# A part holds a random share of what one study measured. Substitutions count along the parent as printed.

# Sample 1
# Target: UBE2D3 UBC core domain (UniProt P61077)
# Technique: yeast two-hybrid
# Medium: yeast
# Setting: mostly zero background
# Relative to: not given
# Direction: higher = stronger interaction
# B1: UBOX5 RING domain (UniProt O94941); chain EQPGSILGPECASCKRVFSPYFKKEPVYQLPCGHLLCRPCLGEKQRSLPMTCTACQRPVASQDVLR
# B2: ZMIZ2 RING domain (UniProt Q8NF64); chain GTIPGTPGPNGEDGVEQTAIKVSLKCPITFRRIQLPARGHDCRHIQCFDLESYLQLNCERGTWRCPVCNKTALLEGLEVDQYMLGILIYIQNSDYEEITIDPTCSWK
# B3: MDM4 RING domain (UniProt O15151); chain MEDCQNLLKPCSLCEKRPRDGNIIHGRTGHLVTCFHCARRLKKAGASCPICKKEIQLVIKVF
# B4: RNF19A RING domain (UniProt Q9NV58); chain ISKQIGDFIECPLCLLRHSKDRFPDIMTCHHRSCVDCLRQYLRIEISESRVNISCPECTERFNPHDIR
# B5: RFWD3 RING domain (UniProt Q6PCD5); chain ASMDEEEGDTCTICLEQWTNAGDHRLSALRCGHLFGYRCISTWLKGQVRKCPQCNKKARHSDIVV
# Residues (chain): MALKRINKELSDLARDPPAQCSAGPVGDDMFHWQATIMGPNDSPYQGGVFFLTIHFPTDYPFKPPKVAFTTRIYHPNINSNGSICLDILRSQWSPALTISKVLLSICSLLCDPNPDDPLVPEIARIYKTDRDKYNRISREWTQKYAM
Molecule,lacZ reporter activity
B1 (UBOX5 RING domain),0
GSDDEEIPFKCFICRQSFQNPVVTKCRHYFCESCALQHFRTTPRCYVCDQQTNGVFNPA (RNF113A RING domain (UniProt O15541)),0
B2 (ZMIZ2 RING domain),0
B3 (MDM4 RING domain),0
B4 (RNF19A RING domain),0
GSRLQEINDVCAICYHEFTTSARITPCNHYFHALCLRKWLYIQDTCPMCHQKVYIEDDIK (RNF139 RING domain (UniProt Q8WU17)),0
B5 (RFWD3 RING domain),9300
NLSELTPYILCSICKGYLIDATTITECLHTFCKSCIVRHFYYSNRCPKCNIVVHQTQPLY (PCGF6 RING domain (UniProt Q9BYE7)),0

# Sample 2
# Target: HLA class I histocompatibility antigen, A alpha chain, allele A*80:01 (Homo sapiens, UniProt P04439)
# Observed: peptide-MHC binding
# Molecule type: peptide
# Tested at: concentration not given
Molecule,binding
RLKHIFLIF,inactive
LICYQIEYI,inactive
LMRGVKWLK,inactive
KCNPNLHYW,inactive
TRAPAPFPL,inactive
FHARFVQAL,inactive
GRYNLVPPK,inactive
HVIYFTAFT,inactive

# Sample 3
# Target: CCNB1, cyclin fold, Cln2 fusion (human)
# Technique: yeast growth competition, sequencing
# Medium: yeast
# Setting: strong parent motif
# Relative to: not given
# Direction: higher = stronger binding
# Starting sequence: viral docking peptide; KGVKRKLFAEDSS; partner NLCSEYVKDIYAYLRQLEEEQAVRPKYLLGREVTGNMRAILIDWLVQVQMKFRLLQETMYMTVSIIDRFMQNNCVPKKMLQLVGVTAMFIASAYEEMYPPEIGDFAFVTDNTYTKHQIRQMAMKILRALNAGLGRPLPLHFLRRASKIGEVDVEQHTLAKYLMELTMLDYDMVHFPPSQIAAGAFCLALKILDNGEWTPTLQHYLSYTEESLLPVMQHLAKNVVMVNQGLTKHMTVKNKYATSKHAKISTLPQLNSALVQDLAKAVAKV
Variant,normalised enrichment score
R5L,0.872
V3G,0.488
A9R,1.77
D11Y,1.56
E10W,0.58
R5D,0.227
V3R,0.308
K6W,0.11

# Mixed results
SMILES,cell line,tested at,time,endpoint,value
N[C@@H](Cc1ccc(N(CCCl)CCCl)cc1)C(=O)O,HaCaT,100 µM,36 h,viability,43.1%

# Excerpt of the above (sample 3):
Variant,normalised enrichment score
V3G,0.488
A9R,1.77
D11Y,1.56
